Measured values gathered from unrelated publications.
Parts stem from different laboratories: compare values within a part only.

Block 1 — method: protein-binding microarray; molecule type: double-stranded DNA, one strand shown; matrix: in vitro; tested at: 250 nM; setting: 60-bp whole probe; with: salmon DNA 0.4 mg/ml; baseline: random background probes; direction: higher = stronger binding; endpoint: log fluorescence; all sequences stand within: GCCTAGCAC … GTCTTGATTCGCTTGACGCTGCTG
Target: Interferon regulatory factor 5, full length, phosphomimetic (IRF5, Homo sapiens, UniProt Q13568-2, residues 1-514, K96S/S451D/S453D/S456D/S462D)
TCAAGAAAGTGAAATACCACTGTGCTA: 1.13 z-score
GACGAATTCGGGTTTCGAGACGTGCTA: 2.14 z-score
GACGGTTTCCTTTCCCGGACGTGCTAG: 1.15 z-score
GTCGGTATCGGACTGGGGACGTGCTAG: 1.37 z-score
GACGATTTCGGGTTTGGAGACGTGCTA: 3.17 z-score
TTAGGACTGGGGTTTCGGTTCGTGCTA: 5.18 z-score
GACGGACTGGCGTTTCGGGACGTGCTA: 0.504 z-score
TATAATTTTGTCATCTATAAGTGCTAG: 1.24 z-score

Block 2 — effect on: enzyme activity; action: inhibitor; tested at: 20 µM; endpoint: inhibition
Target: Replicase polyprotein 1ab, main protease (rep, Severe acute respiratory syndrome coronavirus 2, UniProt P0DTD1)
CC(=O)[O][Hg][c]1ccccc1: 100%
CN1Cc2ccccc2[C@@H]2c3cccc4[nH]cc(c34)C[C@H]21: -3.59%
COc1ccc2c(c1)nc([S+]([O-])Cc1ncc(C)c(OC)c1C)[n]2[Mg][n]1c([S+]([O-])Cc2ncc(C)c(OC)c2C)nc2cc(OC)ccc21 (stereo not shown): -6.78%

Block 3 — method: RNA Bind-n-Seq; molecule type: RNA; matrix: in vitro; tested at: 365 nM; baseline: no-protein control; direction: higher = stronger binding; endpoint: RBNS enrichment (R)
Target: RNA binding protein fox-1 homolog 2, RRM domain, GST-SBP tag (RBFOX2, Homo sapiens, UniProt O43251-10, residues 100-194)
Setting: natural RNA segment, single round, ends assumed
All sequences stand within: GGGAGUUCUACAGUCCGACGAUC … UGGAAUUCUCGGGUGCCAA
Construct (chain): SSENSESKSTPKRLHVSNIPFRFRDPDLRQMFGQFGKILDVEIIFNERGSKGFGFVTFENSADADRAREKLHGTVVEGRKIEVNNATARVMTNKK
AGGAACUGCGCCCUGGAAAGGGCUCCCCGAAGUUCUAGGUGGCCUUGACCUGACACUUGCAUUUUCUAGGCCACUCUUUGGGGUGGCUGAGAAUCAUGACAGACCCUCUG: 0.283
GCUGCUCUUAGCGCCGGCUCUGCCUCUCCACCCUUGGCAGGGCUGGCUGGAGUUGCUGUGGGGACUGAUUUUCUGGGUGGGGAAGCAGCCAUCUAUUCUUGCAGCCAUCU: 0.278
GGGCAAGUUCAUUGUGCUACCCUCCCAAUUCCCCCAUUAUGGAGUAACCAGUAUUAUUCAGUGAGCUAUGGGGUAGUGUUUCACUCCUUGCUUCAAUAUGGUUUUUUCCU: 0.405
CUAGCCUUCGGGCACCUCCAGGGCCAGAGAGCAGGCUCAGAGCAGCUAGUGUGGAGCUCAGCAUCCCCACCCCACCCCUCCUCCCUGUAGAGCUGAUUUGAGGCCUCCUU: 1.41
CCCCACCUACCCUGGCACUUGCCCUGUGACAUGAUGGGUGAGGCUGUGGGGGAACUCAGUGGCAGGAAGCUAGUGGUCCCUGGGAACAGGGGACAGGAAUCCGUACCCAA: 0.409
AGUUGGCAUUUGUUAUCCUCUUGUAUACUUGUAUUCCCUUAACUCUAACCCUGUGGAAGCAUGGCUGUCUGCACAGAGGGUCCCAUUGUGCAGAAAAGCUCAGAGUAGGU: 0.519
UCUCCAGUUAGCUAACUGGAUUCUUAAGGAUGAUUCUAGCAAAUUAUAAGAAUAAAUAGUAAAAAGAGGCAGGGACAUAUUUGUUAACAAUAUAUUGAAAUGGGAGCUUU: 0.948
UGAGCGUGGAUCUGAACACCACAGCCCCUGUACUUGGGUUGCCUCUUGUCCCUGAACUUCGUUGUACCAGUGCAUGGAGAGAAAAUUUUGUCCUCUUGUCUUAGAGUUGU: 1.14

Block 4 — cell line: HEK-293T; effect on: pseudovirus infection; organism: VSV pseudotyped with SARS-CoV-2 spike; tested at: 10 µM; time: 16 h; baseline: vehicle-treated; endpoint: GFP-positive cells
C[N+](C)(C)CC(=O)O: 89.1%
C=C1[C@H](CO)[C@@H](O)C[C@@H]1n1cnc2c(=O)[nH]c(N)nc21: 99.8%
C[C@]12C=CC(=O)N[C@@H]1CC[C@@H]1[C@@H]2CC[C@]2(C)[C@@H](C(=O)Nc3cc(C(F)(F)F)ccc3C(F)(F)F)CC[C@@H]12: 97.8%
NC(=O)OCC(COC(N)=O)c1ccccc1: 92.3%

Block 5 — action: inhibitor; tested at: 20 µM; endpoint: inhibition
Target: Replicase polyprotein 1ab, nsp13 helicase (rep, Severe acute respiratory syndrome coronavirus 2, UniProt P0DTD1)
N#CCC1(n2cc(-c3ncnc4[nH]ccc34)cn2)CN(C2CCN(C(=O)c3ccnc(C(F)(F)F)c3F)CC2)C1: -1.42%
Cn1cc(-c2[nH]c3cc(NC(=O)[C@H](N)C4CCCCC4)cc4c3c2C=NNC4=O)cn1: 56.1%
CN1C(=O)N[C@H](Cc2c[nH]c3c(Cl)cccc23)C1=O: -1.49%
C[N+](C)(C)[C@@H](Cc1c[nH]c(=S)[nH]1)C(=O)[O-]: 2.86%
CC1(COc2ccc3c(c2)ncn3-c2ccc3cccc(N4CCC(N)CC4)c3n2)COC1: 8.1%
CC[C@@](C)(Nc1ccnc(-c2c[nH]c3ncccc23)n1)C(=O)NCC(F)(F)F: 2.63%
O=C(O)CCCN1CCC(O[C@@H](c2ccc(Cl)cc2)c2ccccn2)CC1: -2.87%
COc1cccc(C(=O)CCN[C@@H](C)[C@H](O)c2ccccc2)c1: 7.86%
COc1cc(C#N)ccc1S(=O)(=O)Nc1ccc2c(c1)cc(C)c(=O)n2C: 0.72%
O=C(NCCCN1CCC2(CC1)OCc1ccccc12)[C@H]1CCCN1Cc1ccccc1: -1.18%
COC(=O)c1sccc1S(=O)(=O)Nc1ccc(Nc2ccccc2)cc1OC: 0.92%
CN1C(CCl)Nc2cc(Cl)c(S(N)(=O)=O)cc2S1(=O)=O (stereo not shown): 4.61%
CCC1(C)CC(=O)NC1=O (stereo not shown): 3.7%
CC(C)(CCCCCCCCCCC(C)(C)CC(=O)O)CC(=O)O: 6.58%
O=C(O)c1ccccc1Nc1cccc(C(F)(F)F)c1: 0.12%
c1ccc(C(NCCNC(c2ccccc2)c2ccccc2)c2ccccc2)cc1: 7.56%
Cc1cc(C(C)(C)CC(C)(C)C)ccc1OCCOCC[N+](C)(C)Cc1ccccc1: 0.6%
COCC(=O)O[C@]1(CCN(C)CCCc2nc3ccccc3[nH]2)CCc2cc(F)ccc2[C@@H]1C(C)C: 5.48%
COc1cccc(OC)c1-c1ccc(C[C@H](NC(=O)c2c(Cl)cccc2Cl)C(=O)O)cc1: 0.5%
Cc1ccc(Oc2ccccc2-c2csc(N=C3NCCCN3)n2)c(C)c1: -0.63%
Oc1ccc(OC2CCCCO2)cc1 (stereo not shown): 10.1%
O=C(O)CC/C=C\C[C@H]1CO[C@@H](c2ccccc2Cl)O[C@H]1c1ccccc1O: 12.2%
C[C@H](Cc1ccc2c(c1)OC(C(=O)O)(C(=O)O)O2)NC[C@H](O)c1cccc(Cl)c1: 7.09%
Cc1cc(Nc2cc(C)c(C#N)c(N[C@@H](C)CCCC(C)(C)O)n2)n[nH]1: -3.34%

Block 6 — method: protein binding microarray; molecule type: double-stranded DNA, one strand shown; matrix: in vitro; tested at: not given; baseline: not given; direction: higher = stronger binding; endpoint: E-score
Target: Histone acetyltransferase KAT6A, winged helix 2, GST fusion (KAT6A, Homo sapiens, UniProt Q92794, residues 85-181)
Setting: 8-mer, flanks averaged, mean of 2 arrays, mostly near background
Construct (chain): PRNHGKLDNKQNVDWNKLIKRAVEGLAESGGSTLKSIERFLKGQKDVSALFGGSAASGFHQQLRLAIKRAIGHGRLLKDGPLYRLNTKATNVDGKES
AACAGGCG: -0.0795
CCAGCATC: 0.072
GGCGTACA: -0.106
AATCCGCC: 0.0852
GACCGGGC: 0.0262
ACTGGCGA: 0.0125
CGAACGCC: 0.0113
AATTTGGA: -0.0145

For quick reference, copied from above (block 5):
C[C@H](Cc1ccc2c(c1)OC(C(=O)O)(C(=O)O)O2)NC[C@H](O)c1cccc(Cl)c1: 7.09%
Oc1ccc(OC2CCCCO2)cc1 (stereo not shown): 10.1%
CC(C)(CCCCCCCCCCC(C)(C)CC(=O)O)CC(=O)O: 6.58%
CCC1(C)CC(=O)NC1=O (stereo not shown): 3.7%
O=C(O)c1ccccc1Nc1cccc(C(F)(F)F)c1: 0.12%
O=C(O)CCCN1CCC(O[C@@H](c2ccc(Cl)cc2)c2ccccn2)CC1: -2.87%
O=C(O)CC/C=C\C[C@H]1CO[C@@H](c2ccccc2Cl)O[C@H]1c1ccccc1O: 12.2%
